Assay results gathered from unrelated publications.
Every numbered part comes from another study and shows a few of its results, in no order. Substitutions count along the parent as printed.

Sample 1
Target: CREB5, bZIP domain (human)
Technique: DHFR protein complementation
Sample: yeast
Notes: single substitutions, most at no-binding floor
Baseline: wild-type JUN-FOS pair
Direction: higher = stronger binding
Parent: JUN, bZIP domain (human); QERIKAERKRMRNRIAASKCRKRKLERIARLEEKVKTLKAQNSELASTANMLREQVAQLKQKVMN; partner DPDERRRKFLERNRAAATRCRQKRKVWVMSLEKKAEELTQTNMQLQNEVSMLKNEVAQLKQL
`E33R` gave a binding fitness of -0.459 natural log.
`T37Y` gave a binding fitness of -0.28 natural log.
For `L59I`, the binding fitness was -0.936 natural log.
`S43N` has a binding fitness of -0.228 natural log.
`V35F` has a binding fitness of -1.07 natural log.
With `S43M` the binding fitness was -0.284 natural log.
With `A29R` the binding fitness was -0.323 natural log.
The binding fitness of `S47V` is reported as -0.169 natural log.
`A46D` gave a binding fitness of -0.988 natural log.

Sample 2
Target: Ras GTPase-activating protein-binding protein 1, RRM domain (G3BP1, Homo sapiens, UniProt Q13283)
UniProt Q13283, sequence (whole entry, looked up): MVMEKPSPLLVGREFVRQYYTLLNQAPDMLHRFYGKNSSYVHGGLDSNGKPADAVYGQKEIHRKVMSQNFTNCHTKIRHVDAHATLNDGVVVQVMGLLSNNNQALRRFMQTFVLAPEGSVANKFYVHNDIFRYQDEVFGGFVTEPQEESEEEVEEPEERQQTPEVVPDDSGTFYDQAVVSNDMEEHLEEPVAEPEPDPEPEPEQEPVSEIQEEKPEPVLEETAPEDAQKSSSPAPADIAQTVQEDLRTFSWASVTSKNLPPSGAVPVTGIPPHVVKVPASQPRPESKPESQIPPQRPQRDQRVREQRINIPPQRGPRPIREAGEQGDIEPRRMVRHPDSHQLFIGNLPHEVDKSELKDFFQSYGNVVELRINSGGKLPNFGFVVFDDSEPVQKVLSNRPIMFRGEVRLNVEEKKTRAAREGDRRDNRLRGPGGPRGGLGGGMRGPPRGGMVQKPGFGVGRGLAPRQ
Technique: RNA Bind-n-Seq
Form: RNA
Sample: in vitro
Concentration: 1 µM
Notes: whole 134-nt RNA, ends assumed
Added: 150 mM KCl
Baseline: input library
Direction: higher = stronger binding
The log2 enrichment of `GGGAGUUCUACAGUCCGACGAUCUGCAGCUGCUGGCCGCCUCCUAUGACCUGCACCGCUACUUCUACACGGGUGCCGAGAUCCUGGGCCUCAUCGACGAGAAGCACCGCGAGCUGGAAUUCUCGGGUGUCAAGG` is reported as -0.27.
`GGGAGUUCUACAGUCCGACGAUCGUCCUGUGCUACACAUCGUAUGUACCGAAUCGGGGAAAAAAAGGGGAGGGGAAAGGGGAAAGUAUUAUGUUACGCCGUUCGGAUCUGCACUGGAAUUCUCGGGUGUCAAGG` gave a log2 enrichment of 0.997.
The log2 enrichment of `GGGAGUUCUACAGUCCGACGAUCCCUGUGCUACACAUCGUAUGUACCGAAUCGGGGCCCCCCCGGGCCCCCCCGGCCCCCCCGGAAAGUAUUAUGUUACGCCGUUCGGAUCUGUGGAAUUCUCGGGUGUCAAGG` is reported as -0.642.
`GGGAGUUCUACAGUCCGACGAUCUCCUGUGCUACACAUCGUAUGUACCGAAUCAAACCCCCAAACCCCCCCAAAUUUUUAAAAAAGUAUUAUGUUACGCCGUUCGGAUCUGCAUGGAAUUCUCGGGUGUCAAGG` has a log2 enrichment of -0.0604.
`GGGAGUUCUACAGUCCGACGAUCAGUCCUGUGCUACACAUCGUAUGUACCGAAUCGGGGUGGGGUUUUUUUGGGGUGGGGAAAGUAUUAUGUUACGCCGUUCGGAUCUGCACUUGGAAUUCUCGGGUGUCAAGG` gave a log2 enrichment of 1.19.
For `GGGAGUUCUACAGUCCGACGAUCAGUCCUGUGCUACACAUCGUAUGUACCGAAUCGGGGUGGGGUGGGGAAAAAAAGGGGAAAGUAUUAUGUUACGCCGUUCGGAUCUGCACUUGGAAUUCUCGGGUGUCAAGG`, the log2 enrichment was 0.777.
`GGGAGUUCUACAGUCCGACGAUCUCCUGUGCUACACAUCGUAUGUACCGAAUCGGGGUUUUUUUGGGGUUUGGGGUUUGGGGAAAGUAUUAUGUUACGCCGUUCGGAUCUGCAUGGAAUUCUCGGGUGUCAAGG` has a log2 enrichment of 1.11.

Sample 3
Target: Prothrombin, mature alpha-thrombin (F2, Homo sapiens, UniProt P00734)
Technique: aptamer microarray, sandwich
Form: DNA with 2'F-ANA
Sample: in vitro
Concentration: 200 nM
Notes: whole 15-mer aptamer, many near background
Added: Cy3 exosite-II aptamer, 400 nM
Direction: higher = stronger binding
Sequence: GGTTGGTGTGGTTGG
`2'F-ANA at 7 8 9 11 12 15` — result for “mean fluorescence intensity”: 682 a.u.
`2'F-ANA at 3 4 7 9 11 15`: “mean fluorescence intensity” 740 a.u.
`2'F-ANA at 1 2 4 5 6 7 8 9 11 12 13`: “mean fluorescence intensity” 87.7 a.u.
`2'F-ANA at 8 10 14 15`: “mean fluorescence intensity” 106 a.u.
`2'F-ANA at 1 3 6 7 8 9 10 11 12 13 14 15`: “mean fluorescence intensity” 60.8 a.u.
`2'F-ANA at 2 7 8 9 10 12 13 14` — result for “mean fluorescence intensity”: 164 a.u.
`2'F-ANA at 2 4 5 7 8 9 10 11 12 13 14`: “mean fluorescence intensity” 65.2 a.u.
`2'F-ANA at 1 6 7 8 9 11 13 15` — result for “mean fluorescence intensity”: 132 a.u.
`2'F-ANA at 1 4 5 8 12 13`: “mean fluorescence intensity” 86.5 a.u.

Mixed results
`PhoQ, residues 284 288 289 292 302 303 TYGVAM` gave a fold induction of 5.9 (PhoP, residues 12 14 15 18 19 MHTVL (Escherichia coli, UniProt P23836); Sort-seq, refers to: YFP reporter; E. coli; PhoQ-PhoP variant library, added: 10 µM Mg2+; baseline: high Mg2+ state, higher = stronger signaling).

Some of these lines once more (sample 2):
`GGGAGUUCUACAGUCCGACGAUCGUCCUGUGCUACACAUCGUAUGUACCGAAUCGGGGAAAAAAAGGGGAGGGGAAAGGGGAAAGUAUUAUGUUACGCCGUUCGGAUCUGCACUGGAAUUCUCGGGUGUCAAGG` gave a log2 enrichment of 0.997.
The log2 enrichment of `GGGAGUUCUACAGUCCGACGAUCCCUGUGCUACACAUCGUAUGUACCGAAUCGGGGCCCCCCCGGGCCCCCCCGGCCCCCCCGGAAAGUAUUAUGUUACGCCGUUCGGAUCUGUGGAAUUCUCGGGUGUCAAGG` is reported as -0.642.
